# Assay results gathered from unrelated publications.
# ± marks the error that the study gave.
# CNR2: Cannabinoid receptor 2 (CNR2, Homo sapiens, UniProt P34972)
# Chain of UniProt P34972 (whole entry, unmodified, looked up): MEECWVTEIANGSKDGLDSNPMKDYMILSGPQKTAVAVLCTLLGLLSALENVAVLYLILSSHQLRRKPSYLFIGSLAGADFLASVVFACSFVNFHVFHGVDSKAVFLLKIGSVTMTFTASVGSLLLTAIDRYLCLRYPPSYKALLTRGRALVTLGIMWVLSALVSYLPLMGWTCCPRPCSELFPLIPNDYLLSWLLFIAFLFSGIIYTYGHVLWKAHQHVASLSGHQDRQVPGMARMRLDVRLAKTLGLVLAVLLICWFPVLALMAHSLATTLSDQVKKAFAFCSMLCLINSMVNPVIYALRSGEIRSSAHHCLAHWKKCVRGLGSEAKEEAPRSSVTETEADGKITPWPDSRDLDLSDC
SMILES,target,assay,test system,conditions,quantity,result
CCCCCn1cc(C(=O)c2cccc3ccccc23)c2ccccc21,"Cannabinoid receptor 2 (CNR2, Homo sapiens, UniProt P34972, V261L)","G protein activation, agonist, BRET",,,EC50,0.589 nM
CCOC(=O)[C@@](CC)(CCCSCCOCCOCCNc1ccc([N+](=O)[O-])c2nonc12)NC(=O)c1ccc(C2CC2)c(Cc2ccc(F)cc2)n1,CNR2,"cAMP, agonist",,,EC50,17 nM
CCCCn1cc(C(=O)c2cccc3ccccc23)c2cc(O)ccc21,CNR2,"ligand displacement, radioligand",,cell membranes,Ki,185 nM
CCOC(=O)C(CC)(CC)NC(=O)c1ccc(N2CC(OC)C2)c(OC[C@H]2C[C@@H]2CO)n1,CNR2,"inverse agonist, HTRF cAMP",CHO cells stably expressing receptor,,IC50,4.4 nM
CCOC(=O)[C@](CC)(CCCSCCOCCOCCNC(=O)c1ccc(-c2c3ccc(=N)c(S(=O)(=O)O)c-3oc3c(S(=O)(=O)O)c(N)ccc23)c(C(=O)O)c1)NC(=O)c1ccc(C2CC2)c(Cc2ccc(F)cc2)n1,CNR2,"ligand displacement, radioligand",,cell membranes,Ki,44 nM
CCOC(=O)C(CC)(CC)NC(=O)c1ccc(C2CC2)c(Cc2ccc(F)cc2)n1,CNR2,"cAMP, agonist, TR-FRET",,,EC50,6.5 nM
CC1=C[C@H]2c3c(O)cc(CCc4ccccc4)cc3OC(C)(C)[C@H]2CC1,CNR2,"GTPγS binding, agonist, radiometric",,cell membranes,EC50,167 nM
CCCCCn1cc(C(=O)c2cccc3c2CC(C)(C)C3)c2ccccc21,"Cannabinoid receptor 2 (CNR2, Homo sapiens, UniProt P34972, I110L)","G protein activation, agonist, BRET",,,EC50,4570 nM
COC(=O)c1ccc(Cn2cc(C=C3C(=NO)C4CCN3CC4)c3ccccc32)cc1,CNR2,"ligand displacement, radioligand",,cell membranes,Ki,271 nM
CCCCCn1cc(C(=O)c2ccc3ccccc3c2)c2ccccc21,"Cannabinoid receptor 2 (CNR2, Homo sapiens, UniProt P34972, L182I)","G protein activation, agonist, BRET",,,EC50,42.7 nM
COC(=O)c1ccc2c(C=C3C(=O)C4CCN3CC4)cn(Cc3ccccc3)c2c1,CNR2,"cAMP level, agonist",CHO expressing human CB2,with: 10 µM forskolin,IC50,48 ± 3.9 nM
COC1CC(=O)N(C)C=CCCCC(=O)N(C)C(C(C)C)C(=O)N(C)C(CC(C)C)C(=O)OC(C(C)C)CC(C)C1 (stereo not drawn),CNR2,"β-arrestin recruitment, antagonist",,,IC50,35000 nM

# A few entries again:
SMILES,target,assay,test system,conditions,quantity,result
CCOC(=O)[C@](CC)(CCCSCCOCCOCCNC(=O)c1ccc(-c2c3ccc(=N)c(S(=O)(=O)O)c-3oc3c(S(=O)(=O)O)c(N)ccc23)c(C(=O)O)c1)NC(=O)c1ccc(C2CC2)c(Cc2ccc(F)cc2)n1,CNR2,"ligand displacement, radioligand",,cell membranes,Ki,44 nM
CCOC(=O)C(CC)(CC)NC(=O)c1ccc(C2CC2)c(Cc2ccc(F)cc2)n1,CNR2,"cAMP, agonist, TR-FRET",,,EC50,6.5 nM
